Published values collected from several papers.
Compare with care: the assays were run in different laboratories. “And” joins repeats or separate records; there may be more than shown. ± gives the spread as reported.

Compound | test | test system | conditions | scale | measurement | value
C[C@H]1O[C@@H](O[C@H]2CC[C@@]3(C)[C@@H](CC[C@]4(C)[C@@H]3C=C[C@]35OC[C@@]6(CCC(C)(C)C[C@H]63)[C@@H](O)C[C@]54C)[C@]2(C)CO)[C@H](O)[C@@H](O[C@@H]2O[C@H](CO)[C@@H](O)[C@H](O)[C@H]2O)[C@H]1O | Western blot, refers to: Mtor | mice, normal control diet, liver | dose not given, high dose, unit not given | baseline: β-actin | protein level | 1.45 and 1.13 and 0.49
CC(C)NCC(O)c1ccc(O)c(O)c1 (stereo not drawn) |  | ventricular cardiomyocytes, C57BL/6 mouse | dose not given, 0.556 s |  | sarcomere length | 1.51 µm
O=C1Nc2cc3[nH]nc(-c4ccncc4)c3cc2CN1Cc1ccccc1 | RECIST v1.1 | human, relapsed or refractory advanced solid tumours | intravenous, 3.6 mg/kg, pooled schedules |  | complete response, best response | 0%
COc1nnc2ccc(N3CCC(c4ccc(OCCN5CCN(C)C(=O)[C@H]5C)cc4)CC3)nn12 |  | human patients | 15 mg twice daily, 1.5-fold above baseline |  | time above HEXIM1 threshold | 7.16 h
CO[C@H]1CC[C@H](N2C(=O)CNc3ncc(-c4ccc(C(C)(C)O)nc4)nc32)CC1 | flow cytometry | stimulated B cells, human, blood | 30 mg single dose, 1.5 h, median | baseline: baseline | pS6RP change from baseline | -64.1%
CC(c1cc2ccccc2s1)N(O)C(N)=O (stereo not drawn) | refers to: arachidonic acid | human whole blood | 3 µM, together with: Escherichia coli |  | amount | 530000 ± 85600 pg/mL blood
C[C@]1(c2nc3c(C(N)=O)cccc3[nH]2)CCCN1 | refers to: poly(ADP-ribose) | cancer patients, tumour biopsy | 10 mg, 7 h, together with: combination |  | PAR reduction | > 75%
O=C(OC(C(F)(F)F)C(F)(F)F)N1CCN(Cc2cccc(Oc3ccccc3)c2)CC1 | PET | rhesus monkey, cerebellum | intravenous, 0.03 mg/kg, pretreatment, together with: [18F]T-401 |  | tracer distribution volume | 4.95 mL/cm3
CN(C)C(=O)Oc1cccc([N+](C)(C)C)c1 | neuromuscular block reversal | rat | dose not given, 4.5 (unit not given), together with: cisatracurium | baseline: T1 twitch | train-of-four ratio | 14.2
CCCCC1(CCCC)CN(c2ccccc2)c2cc(SC)c(OCC(=O)N[C@@H](C(=O)NCC(=O)O)c3ccccc3)cc2S(=O)(=O)C1 | refers to: 7α-hydroxy-4-cholesten-3-one | human, plasma | 2.5 mg once daily, day 14 |  | plasma C4 | 34.5 ng/mL
OC(CCN1CCCCC1)(c1ccccc1)C1CC2C=CC1C2 (stereo not drawn) | resting-state EEG | healthy elderly humans | oral, 2 mg, eyes closed, LS mean | baseline: baseline | change, Delta EEG power, in O2-Pz | 22%
Cc1n[nH]c2ccc(-c3cc(OC[C@@H](N)Cc4ccccc4)cnc3-c3ccoc3)cc12 | kinase binding, competitor, MIB/MS competition, refers to: PBS2 | Candida albicans cell lysate | 100 nM | baseline: DMSO | log2 fold change | -0.000679
N#Cc1ccc2c(c1)[C@H]1CCCN(C(=O)c3ccc4[nH]cnc4c3)[C@H]1C2 | refers to: body weight | human | 80 mg once daily, day 28, adjusted mean | baseline: placebo | change from baseline | -0.55 kg
Cc1sc2c(c1C)C(c1ccc(Cl)cc1)=N[C@@H](CC(=O)NCCCCCCCCNC(=O)COc1cccc3c1C(=O)N(C1CCC(=O)NC1=O)C3=O)c1nnc(C)n1-2 (stereo partly drawn) | flow cytometry | 4T1 tumour-bearing mice, spleen | dose not given |  | CD80+ CD86+ dendritic cells | 28.3% and 28.8% and 26.5% and 27.9%
CN[C@@H]1COc2c(S(=O)(=O)NC(=O)Nc3c4c(cc5c3CCC5)CCC4)cnn2C1 | refers to: IL-18 | human participants, whole blood ex vivo | 900 mg single dose, 4 h, IL-18, circulating, adjusted for, together with: LPS/ATP | baseline: baseline | inhibition | 105%
c1ccc(-c2n[nH]cc2-c2ccnc3ccccc23)nc1 | kinase binding, competitor, MIB/MS competition, refers to: SCH9 | Candida albicans cell lysate | 10 µM | baseline: DMSO | log2 fold change | 1.07
COc1cc2cc(-c3ccc(CC(=O)Nc4cc(C(C)(C)C(F)(F)F)no4)cn3)cnc2cc1OC | RECIST v1.1 | human RET-altered solid tumours | 75 mg, phase I pooled |  | best overall response PR | 25%
N#Cc1ccc2c(c1)[C@H]1CCCN(C(=O)c3ccc4[nH]cnc4c3)[C@H]1C2 |  | T2DM patients with overweight or obesity, urine | oral, 40 mg, day 14, 0-24 h, multiple dosing, adjusted geometric mean | baseline: baseline day -1, -24-0 h | total urinary corticosteroid excretion | 254%
COc1ccc(-c2cncc(N[C@@H](C)c3cccc(NC(=O)c4cncc(C)c4)c3)n2)cc1OC | refers to: rno-miR-22-3p | rat SU5416/hypoxia model, lung | dose not given | baseline: SU5416/hypoxia vehicle | fold change | 1.56
CN(C)C(=O)c1cc2cnc(Nc3ccc(N4CCNCC4)cn3)nc2n1C1CCCC1 | RNA-seq GSEA, refers to: HALLMARK_HEDGEHOG_SIGNALING | MB002 tumour | concentration not given, in vivo | baseline: vehicle, direction not given | normalized enrichment score | -1.64
CC(C)[C@H](C(=O)Nc1ccc(C(=O)NO)cc1)c1ccccc1 | volumetric MRI | human, right IAC schwannoma | dose not given, on treatment, day 224 |  | annual tumour growth rate | 18.1 %/year

Compound | test | test system | conditions | scale | measurement | value
C[C@@H](O)CCOC(=O)C[C@@H](C)O | refers to: C8 acylcarnitine | human, plasma | 60 min, log2-transformed values |  | metabolite level | -3.47 ± 1.24 µmol/L
O=c1cc(-c2ccc(O)cc2)oc2c([C@@H]3OC[C@H](O)[C@H](O)[C@H]3O)c(O)c([C@@H]3O[C@H](CO)[C@@H](O)[C@H](O)[C@H]3O)c(O)c12 |  | HFpEF mice, heart | dose not given |  | Lamp1 expression | increased
N#Cc1ccc2c(-c3ccncc3)c(-c3ccc(F)cc3)nn2c1 | kinase binding, competitor, MIB/MS competition, refers to: TPK2 | Candida albicans cell lysate | 10 µM | baseline: DMSO | log2 fold change | 0.109
C[C@H]1C[C@H]2CSC(N)=N[C@@]2(c2nc(NC(=O)c3ccc(OC(F)F)cn3)cs2)CO1 | refers to: total Aβ | healthy adults, plasma | 12 mg single dose, 48 h post-dose | baseline: placebo | percent change from baseline | -35.4%
C[C@@H](NC(=O)N1C(=O)[C@H](Cc2ccnc(N)c2)[C@H]1C(=O)O)C1CCCCC1 |  | human | iv infusion, 0.6 mg/kg/h, 24 h |  | PT AUEC | 1670 h·s
O=C(O)CNC(=O)Cc1ccccc1 |  | ventricular cardiomyocytes, C57BL/6 mouse | dose not given, 0.144 s |  | sarcomere length | 1.67 µm
N#Cc1ccn2c(-c3ccncc3)c(-c3ccc(F)cc3)nc2c1 | kinase binding, competitor, MIB/MS competition, refers to: TOR1 | Candida albicans cell lysate | 100 nM | baseline: DMSO | log2 fold change | -0.128
COc1ccc(F)cc1C(=O)NCc1ccc(-c2nn([C@@H](C)C(F)(F)F)c(N)c2C(N)=O)cc1 |  | MCL patients | dose not given, all efficacy-evaluable patients |  | overall response rate | 52%
NC(=O)c1cnc2[nH]ccc2c1N[C@@H]1[C@@H]2CC3C[C@H]1C[C@@](O)(C3)C2 | CD4+ naive T cells, flow cytometry | Japanese humans, peripheral blood | 200 mg single dose | baseline: baseline | percent change | 2.37%
Cn1cc(Nc2nccc(-c3ccc4c(c3)CN(C3COC3)CC[C@H]4NC(=O)c3cn(C(C)(C)C)nn3)n2)cn1 | refers to: cAMP-mediated signaling | splenic B cells, mouse | in vivo, 30 mg/kg, IgD-activated B cells | baseline: vehicle, positive = activation | pathway activation z-score | 2.45
CC1(C)CCC(CN2CCN(c3ccc(C(=O)NS(=O)(=O)c4ccc(NCC5CCOCC5)c([N+](=O)[O-])c4)c(Oc4cnc5[nH]ccc5c4)c3)CC2)=C(c2ccc(Cl)cc2)C1 | cell killing | canine lymph node CD21+ B cells, dog 34 | 24 h |  | EC50 | 0.338 µM
N#CCC1CCN(c2nc(Nc3ccc(N4CCC(O)CC4)cc3)c3c(=O)[nH]ncc3n2)CC1 | Olink multiplex, refers to: CDCP1 | human, serum | 40 mg, day 15 | baseline: baseline | fold change from baseline | -1.27
COc1cc2nccc(Oc3ccc(NC(=O)NC4CC4)c(Cl)c3)c2cc1C(N)=O | refers to: sum of target lesion diameters | human, RR-DTC patients | tumour growth model, bootstrap median |  | Ang-2 tumour reduction rate constant | -0.0137 /week
C[C@@H]1CCC[C@H](n2cnc(-c3cc(Cl)ccc3-n3cc(Cl)nn3)cc2=O)c2cc(ccn2)-c2c(cnn2C(F)F)NC1=O |  | rat plasma | IC2.5× aPTT, STA-PTT reagent |  | concentration for aPTT prolongation | > 40 µM
C[C@H](Oc1ccc(Br)cc1-c1ccon1)C(=O)O | muscle velocity recovery cycle | human, tibialis anterior muscle | 200 mg once daily, last response peak at 15 Hz, multiple ascending dose |  | difference from placebo | 7.28%
Cn1cc([C@H]2C[C@H]3CSC(N)=N[C@@]3(c3ccc(F)cc3F)CO2)cn1 | refers to: Aβx-40 | wild-type mouse, brain | subcutaneous, 10 mg/kg, 6 h |  | brain Aβ40 level | 1.73 ng/g
CC(=O)NCC(=O)NCC(=O)N[C@H](C(=O)N[C@@H](Cc1ccc(O)cc1)C(=O)N[C@@H](CO)C(=O)N[C@H]1CSSC[C@@H](C(=O)N[C@@H](CCCNC(=N)N)C(=O)N2CCC[C@H]2C(=O)N[C@@H](CCC(N)=O)C(=O)N[C@@H](CCCNC(=N)N)C(=O)NCC(=O)NCCC(=O)N[C@@H](CCCCNC(=O)CN(CC(=O)NCCCC[C@H](NC(=O)CCNC(=O)CNC(=O)[C@H](CCCNC(=N)N)NC(=O)[C@H](CCC(N)=O)NC(=O)[C@@H]2CCCN2C(=O)[C@H](CCCNC(=N)N)NC(=O)[C@@H]2CSSC[C@H](NC(=O)[C@H](CO)NC(=O)[C@H](Cc3ccc(O)cc3)NC(=O)[C@@H](NC(=O)CNC(=O)CNC(C)=O)[C@@H](C)O)C(=O)N[C@@H](Cc3c[nH]cn3)C(=O)N[C@@H](Cc3ccccc3)C(=O)NCC(=O)N[C@@H](C)C(=O)N[C@@H](CC(C)C)C(=O)N[C@@H]([C@@H](C)O)C(=O)N[C@@H](Cc3c[nH]c4ccccc34)C(=O)N[C@@H](C(C)C)C(=O)N2)C(N)=O)C(=O)CCN)C(N)=O)NC(=O)[C@H](C(C)C)NC(=O)[C@H](Cc2c[nH]c3ccccc23)NC(=O)[C@H]([C@@H](C)O)NC(=O)[C@H](CC(C)C)NC(=O)[C@H](C)NC(=O)CNC(=O)[C@H](Cc2ccccc2)NC(=O)[C@H](Cc2c[nH]cn2)NC1=O)[C@@H](C)O |  | healthy BALB/c mice | subcutaneous, 0.16 mg/kg, 6 d, single dose |  | haematocrit | 49.8%
NCC(=O)Nc1cncc(-c2nn3c(=O)cc(N4CCNCC4)nc3s2)c1 | ADP-induced platelet aggregation, light transmission aggregometry | human, stable CAD on aspirin, ex vivo platelets | subcutaneous, 0.04 mg/kg, 90 min post-dose, mean value, together with: ADP 20 µM |  | inhibition | 6.8%
CN(C(=O)n1cnc(-c2ccc[n+]([O-])c2)c1)C1CCCCC1 | refers to: PEA | human, plasma | 10 mg single dose |  | AUC(0-t) | 347 ng·h/mL
COc1ccccc1[C@H](Cn1c(=O)n(C(C)(C)C(=O)O)c(=O)c2c(C)c(-c3ncco3)sc21)OC1CCOCC1 | [1-13C]acetate infusion, isotopomer analysis | overweight or obese healthy men, plasma VLDL-TG palmitate | oral, 50 mg single dose, -1 h relative to dose, fasted baseline |  | fractional hepatic DNL | 5.35 % new palmitate
Cc1cc(Nc2ccc(S(F)(F)(F)(F)F)cc2)n2nc(C(C)(F)F)nc2n1 | refers to: dihydroorotate | female CD-1 mice, blood | oral, 300 mg/kg daily, 24 h after dose 10 |  | DHO concentration | 1.6 ± 0.102 µM

Some of these lines once more:
Compound | test | test system | conditions | scale | measurement | value
O=c1cc(-c2ccc(O)cc2)oc2c([C@@H]3OC[C@H](O)[C@H](O)[C@H]3O)c(O)c([C@@H]3O[C@H](CO)[C@@H](O)[C@H](O)[C@H]3O)c(O)c12 |  | HFpEF mice, heart | dose not given |  | Lamp1 expression | increased
N#Cc1ccc2c(-c3ccncc3)c(-c3ccc(F)cc3)nn2c1 | kinase binding, competitor, MIB/MS competition, refers to: TPK2 | Candida albicans cell lysate | 10 µM | baseline: DMSO | log2 fold change | 0.109
C[C@H]1C[C@H]2CSC(N)=N[C@@]2(c2nc(NC(=O)c3ccc(OC(F)F)cn3)cs2)CO1 | refers to: total Aβ | healthy adults, plasma | 12 mg single dose, 48 h post-dose | baseline: placebo | percent change from baseline | -35.4%
C[C@@H](NC(=O)N1C(=O)[C@H](Cc2ccnc(N)c2)[C@H]1C(=O)O)C1CCCCC1 |  | human | iv infusion, 0.6 mg/kg/h, 24 h |  | PT AUEC | 1670 h·s
O=C(O)CNC(=O)Cc1ccccc1 |  | ventricular cardiomyocytes, C57BL/6 mouse | dose not given, 0.144 s |  | sarcomere length | 1.67 µm
N#Cc1ccn2c(-c3ccncc3)c(-c3ccc(F)cc3)nc2c1 | kinase binding, competitor, MIB/MS competition, refers to: TOR1 | Candida albicans cell lysate | 100 nM | baseline: DMSO | log2 fold change | -0.128
COc1ccc(F)cc1C(=O)NCc1ccc(-c2nn([C@@H](C)C(F)(F)F)c(N)c2C(N)=O)cc1 |  | MCL patients | dose not given, all efficacy-evaluable patients |  | overall response rate | 52%
